# Values quoted from earlier work that unrelated publications cite.
# Each line is one published result; not all experiments were run side by side. Numbers after ± are the reported error.
Substance,tested on,assay,system,setting,measurement,result
O=C(Nc1ccc([N+](=O)[O-])cc1Cl)c1cc(Cl)ccc1O,SARS-CoV-2,cytopathic effect,Vero E6 cells,72 h,EC50,0.23 µM
C[C@@H]1[C@H](O)[C@@H](C)/C=C/C=C/CC/C=C/C=C/C=C/C=C/C(O[C@H]2O[C@H](C)[C@@H](O)[C@H](N)[C@@H]2O)CC2O[C@](O)(CC(O)C(O)CCC(O)CC(O)CC(O)CC(=O)O[C@H]1C)CC(O)C2C(=O)O (stereo partly shown),African swine fever virus,,macrophages,concentration not given,infectivity reduction,≤ 80%
COC(=O)c1ccc(O)c(O)c1,"Replicase polyprotein 1ab, papain-like protease (rep, Severe acute respiratory syndrome coronavirus 2, UniProt P0DTD1)",,,concentration not given,inhibition,~70%
CC(C)(C)[C@H](NC(=O)C(F)(F)F)C(=O)N1C[C@H]2[C@@H]([C@H]1C(=O)N[C@H](C#N)C[C@@H]1CCNC1=O)C2(C)C,SARS-CoV-2,viral replication,Vero,,EC90,5.6 ± 1.1 µM
CCN(CC)CCCC(C)Nc1ccnc2cc(Cl)ccc12 (stereo not shown),SARS-CoV-2,cytopathic effect,Vero E6 cells,72 h,EC50,5.8 µM
CN(C)CCCN1c2ccccc2Sc2ccc(C(F)(F)F)cc21,SARS-CoV,cytopathic effect,Vero E6,,EC50,6.4 µM
Z-FA-FMK,SARS-CoV-2,viral replication,,,IC50,26.3 µM
CCN(CCO)CCCC(C)Nc1ccnc2cc(Cl)ccc12 (stereo not shown),Ebola virus,viral replication,"Vero E6, eGFP reporter",,EC50,22 µM
NC(=O)c1nc(F)c[nH]c1=O,Lassa virus,,guinea pig,300 mg/kg,survival,83%
C[C@@H]1Cc2c(Cl)cc(C(=O)N[C@@H](Cc3ccccc3)C(=O)O)c(O)c2C(=O)O1,,,"laying hens, egg","oral, in feed, 5 mg/kg feed, 21 d",maximum concentration in eggs,7.4 µg/kg
C[C@@H]1CCO[C@H]2Cn3cc(C(=O)NCc4ccc(F)cc4F)c(=O)c(O)c3C(=O)N12,HIV-1,"viral replication, single-round vector infection",IN N155H,,EC50,0.0036 ± 0.0013 µM
nirmatrelvir,SARS-CoV-2,viral replication,,,IC50,0.0745 µM
CCN(CC)CCO[C@H]1CC[C@@]2(C)C(=CC[C@@H]3[C@@H]2CC[C@]2(C)C(=O)CC[C@@H]32)C1,Ebola virus,"viral replication, eGFP reporter virus",Vero E6,,IC50,8.05 µM
C=C[C@@H]1C[C@]1(NC(=O)[C@@H]1C[C@@H]2CN1C(=O)[C@H](C(C)(C)C)NC(=O)O[C@@H]1C[C@H]1CCCCCc1nc3ccc(OC)cc3nc1O2)C(=O)NS(=O)(=O)C1CC1,SARS-CoV-2,viral replication,Vero E6,,IC50,10.8 µM
CCCNC(=O)[C@H]1O[C@@H]1C(=O)N[C@H](C(=O)N1CCC[C@H]1C(=O)O)[C@@H](C)CC,Ebola virus,viral replication,,concentration not given,infectious progeny yield,decreased
C[C@@H]1C[C@H]2[C@@H]3CCC4=CC(=O)C=C[C@]4(C)[C@@]3(F)[C@@H](O)C[C@]2(C)[C@@]1(O)C(=O)CO,,,"human, plasma","oral, 20 mg",Cmax,257 ng/mL

# For quick reference, copied from above:
Substance,tested on,assay,system,setting,measurement,result
CCN(CC)CCCC(C)Nc1ccnc2cc(Cl)ccc12 (stereo not shown),SARS-CoV-2,cytopathic effect,Vero E6 cells,72 h,EC50,5.8 µM
CN(C)CCCN1c2ccccc2Sc2ccc(C(F)(F)F)cc21,SARS-CoV,cytopathic effect,Vero E6,,EC50,6.4 µM
